Published values collected from several papers.
Every numbered part comes from another study and shows a few of its results, in no order.

Set 1
Target: RNA binding protein fox-1 homolog 2, RRM domain, GST-SBP tag (RBFOX2, Homo sapiens, UniProt O43251-10, residues 100-194)
Technique: RNA Bind-n-Seq
Molecule type: RNA
Sample: in vitro
Concentration: 365 nM
Notes: natural RNA segment, single round, ends assumed
Reference: no-protein control
Direction: higher = stronger binding
Target sequence (chain): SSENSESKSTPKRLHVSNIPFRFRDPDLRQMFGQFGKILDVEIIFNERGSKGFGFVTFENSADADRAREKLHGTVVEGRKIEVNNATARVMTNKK
| Strand | RBNS enrichment (R) |
| --- | --- |
| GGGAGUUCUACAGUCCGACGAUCUUUGGUCUCUUUGACUUGGUUUCUAUAAAUGUUUUUAAAAUGAAGUAAAGCUCUUCUUUACGAGGGGAAUGCUGACUUGAAAUCCUGUAACAGAUGAGAAAGAGUCAUUAUGGAAUUCUCGGGUGCCAA | 0.303 |
| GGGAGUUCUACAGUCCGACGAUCUCUGCCCACCUCAUCCUCCAAAAGUGCUGGGAUUACAGGCAUGAGCCACUGCGCCUGGCCUCAGAAUGCAUUCUUACACAUCUAUCCUAGACAUUUAUAAGCACUCUAAUUGGAAUUCUCGGGUGCCAA | 0.875 |
| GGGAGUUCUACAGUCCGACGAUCGUGGCACGUAUUGCUGUGUCUCCUCUCAGAGUGACAGUCAUAAAUACUGUCAAACAAUAAAGGGAGAAUGGUGCUGUUUAAAGUCACAUCCCUGUAAAUUGCAGAAUUCAUGGAAUUCUCGGGUGCCAA | 0.963 |
| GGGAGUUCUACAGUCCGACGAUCGAAGAGUUCAAACAGAUGAUGUUUUUUCCAAAGAAAAACAAAUUGUUGACUCUCUUCCAUGCAUAUUUUAAGGAUUUGAAUCUGAUUUGAUUUGGAAAGUCAUGAAACUUUGGAAUUCUCGGGUGCCAA | 0.494 |
| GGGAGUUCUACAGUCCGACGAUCUUGCAGGAACGCACAAUUCAUUUUAUCAAGUUGAAUGAAUAGGACCAUUCUCUCCUCAUCAGAUUUCUGUUCUUUAUUUGACUUCAUUGACAUAUACCCUGGUGACUAUAUGGAAUUCUCGGGUGCCAA | 0.601 |
| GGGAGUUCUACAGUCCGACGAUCUUAUUGCAACAUACACCUGAGAUUUAACAAGGCCCCAAAUGACAGGAAUGUCAUAACCAUUCACACUCUAUGUCUUUCAACUCUCAUCAACAUGUUCAUCAACAUGCGUGUGGAAUUCUCGGGUGCCAA | 0.516 |
| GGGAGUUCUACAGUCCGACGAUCGAAUAUUUCCAACAGUGUUUUUUGCAAAUUAGAGCAGGACAAACUUUUAUGUUUACAGGGCACGUCUGUUGUAAUGCAAAGCAUAUUUGGCAAGCAGUUCAUCACCAGGAUGGAAUUCUCGGGUGCCAA | 0.285 |
| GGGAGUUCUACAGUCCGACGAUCUGAGGACCUGCAUCUUGCAGAUGAUGUAGCAAGCCUUAGGAUGGUUCAUGAUCAGUAGGAAGCAAAUUCUAAGACCUCAGGGUGUCUUUCUGAGUCUCUCAUUUCUUUAGUGGAAUUCUCGGGUGCCAA | 0.397 |
| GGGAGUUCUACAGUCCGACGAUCGAGCGCAGAGUGUAAAAUUUUAAUUCAAAAUGGUGGCUAUACUCACUACACAUAAAUCUCAUAAUCUUUUUGUCUUUGGAGAUUCCAUUGUGGACAGUAAUACGCAGUUAUGGAAUUCUCGGGUGCCAA | 0.908 |
| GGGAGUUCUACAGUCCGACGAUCUUCCUCCCUGUCUCUGCAUCUGACUCUCUUUUGAGGUCCCUGUAUGUCUACCUCUGACUUCUGUGGUCCCUCUGUGUCUGCUCUCAUCCAUUCCUCUUACUGGGGCCUGGUGGAAUUCUCGGGUGCCAA | 0.673 |
| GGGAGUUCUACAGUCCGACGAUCCUCCAUUCCUGAGCAGGACUAGUCCGUCCCAGAGGGCCACUGCUAGACUUCCUGUUAGGGGCAAUGUGUUCAUUAUAAAGGCAUAAGGACACCACACCAGCUUGUUGGUUUGGAAUUCUCGGGUGCCAA | 0.519 |
| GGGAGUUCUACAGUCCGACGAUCAUGUGAAGUGAAGUCACGGAACAAGAUGCUGCUGUUGGGACCUUGAGACCAAAAUUUCAGAGCCCUUGAGGUGCAGAGAGCAGAGCCGUCCAAUGAUUUCAACCCUGCAGUGGAAUUCUCGGGUGCCAA | 0.347 |

Set 2
Target: Runt-related transcription factor 1, full length (RUNX1, Homo sapiens, UniProt Q01196-8, residues 1-480)
Technique: protein-binding microarray
Molecule type: hairpin DNA
Sample: in vitro
Concentration: not given
Notes: whole hairpin DNA, median over replicate spots
Reference: not given
Direction: higher = stronger binding
| Strand | median fluorescence [a.u.] |
| --- | --- |
| GAGGCCCAGCCGCAACAGCCTCCTGGCTGTTGCGGCTGGGCCTCACACTC | 2440 |
| GAGGCCGGTTGTGGTTGGCCTCCTGGCCAACCACAACCGGCCTCACACTC | 3650 |
| GAGGCCTCGTGCGGTTGGCCTCCTGGCCAACCGCACGAGGCCTCACACTC | 3420 |
| GAGGCCCAACCGCGACAGCCTCCTGGCTGTCGCGGTTGGGCCTCACACTC (5mC at 31) | 5650 |
| GAGGCCTGTTGCGGCGGGCCTCCTGGCCCGCCGCAACAGGCCTCACACTC (5mC at 29) | 2180 |
| CTCAGTTCTGTGGGCTGGACTCCTGTCCAGCCCACAGAACTGAGACACTC (5mC at 8) | 2080 |
| GAGGCCTATTGCGGTTGGCCTCCTGGCCAACCGCAATAGGCCTCACACTC | 5540 |
| GAGGCCTGTCACGGTTGGCCTCCTGGCCAACCGTGACAGGCCTCACACTC | 1670 |
| GAGGCCCCGCCGCAACAGCCTCCTGGCTGTTGCGGCGGGGCCTCACACTC (5mC at 8) | 2440 |
| GAGGCCTGTCGCGGTTGGCCTCCTGGCCAACCGCGACAGGCCTCACACTC (5mC at 28) | 2790 |
| CTCAGTTCTGTGGCGTGGACTCCTGTCCACGCCACAGAACTGAGACACTC (5mC at 14 30) | 2020 |
| CTCAGTTCTGTGGACTGGACTCCTGTCCAGTCCACAGAACTGAGACACTC | 1730 |
| CTCAGTCGTGTGGGCTGGACTCCTGTCCAGCCCACACGACTGAGACACTC (5mC at 7) | 1930 |
| GAGGCCCGTTGTGGTTGGCCTCCTGGCCAACCACAACGGGCCTCACACTC (5mC at 37) | 3260 |
| GAGGCCTCGTGTGGTTGGCCTCCTGGCCAACCACACGAGGCCTCACACTC | 2230 |
| GAGGCCTGTCGCGTTTGGCCTCCTGGCCAAACGCGACAGGCCTCACACTC | 1640 |
| GAGGCCTGCGGCGGTTGGCCTCCTGGCCAACCGCCGCAGGCCTCACACTC (5mC at 35) | 2750 |
| GAGGCCCAACCGCAACAGCCTCCTGGCTGTTGCGGTTGGGCCTCACACTC | 5520 |
| GAGGCCTGTTCCGGTTGGCCTCCTGGCCAACCGGAACAGGCCTCACACTC (5mC at 11) | 1730 |
| GAGGCCTGTGGTGGTTGGCCTCCTGGCCAACCACCACAGGCCTCACACTC (5mC at 35) | 2100 |
| CTCAGTTCTGTCGGCTGGACTCCTGTCCAGCCGACAGAACTGAGACACTC (5mC at 12) | 1730 |
| GAGGCCTGTCGCGCGTGGCCTCCTGGCCACGCGCGACAGGCCTCACACTC (5mC at 30) | 1810 |
| GAGGCCTGTCGCGGTTGGCCTCCTGGCCAACCGCGACAGGCCTCACACTC (5mC at 32) | 1800 |
| GAGGCCTGTTGCGGCGGGCCTCCTGGCCCGCCGCAACAGGCCTCACACTC (5mC at 15 29) | 2320 |

Set 3
Target: Histone acetyltransferase KAT6A, both winged helices, GST fusion (KAT6A, Homo sapiens, UniProt Q92794, residues 1-181)
Technique: protein binding microarray
Molecule type: double-stranded DNA, one strand shown
Sample: in vitro
Concentration: not given
Notes: 8-mer, flanks averaged, mean of 2 arrays, mostly near background
Reference: not given
Direction: higher = stronger binding
Residues (chain): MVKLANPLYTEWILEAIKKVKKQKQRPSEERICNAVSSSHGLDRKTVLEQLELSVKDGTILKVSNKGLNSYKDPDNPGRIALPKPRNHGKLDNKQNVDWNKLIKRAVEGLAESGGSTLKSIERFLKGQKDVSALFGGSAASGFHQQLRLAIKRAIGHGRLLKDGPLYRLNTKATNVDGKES
| Strand | E-score |
| --- | --- |
| TCGTGAAA | 0.0309 |
| AAGTTGGG | -0.282 |
| CCTTTCAA | -0.00815 |
| AATGAACT | -0.0518 |
| GCCGTAAC | 0.31 |
| ACCTAATG | -0.202 |
| CTACCGCC | 0.192 |
| GGCTAAAA | 0.0973 |
| AAGTCTTG | 0.0348 |
| ATATGCGG | 0.252 |
| GGCGCCAC | 0.275 |
| CCTAGGAG | -0.134 |
| AGCATAAC | -0.125 |
| CGCGCGTA | 0.404 |
| GCGCCCCC | 0.178 |
| AACCGAAC | -0.121 |
| TCCGCCCA | -0.0662 |
| TATGATGA | -0.0899 |
| CTGCCGTA | 0.182 |

Set 4
Target: Sal-like protein 4, full length isoform A (SALL4, Homo sapiens, UniProt Q9UJQ4, residues 1-1053)
UniProt Q9UJQ4, sequence (whole entry, looked up): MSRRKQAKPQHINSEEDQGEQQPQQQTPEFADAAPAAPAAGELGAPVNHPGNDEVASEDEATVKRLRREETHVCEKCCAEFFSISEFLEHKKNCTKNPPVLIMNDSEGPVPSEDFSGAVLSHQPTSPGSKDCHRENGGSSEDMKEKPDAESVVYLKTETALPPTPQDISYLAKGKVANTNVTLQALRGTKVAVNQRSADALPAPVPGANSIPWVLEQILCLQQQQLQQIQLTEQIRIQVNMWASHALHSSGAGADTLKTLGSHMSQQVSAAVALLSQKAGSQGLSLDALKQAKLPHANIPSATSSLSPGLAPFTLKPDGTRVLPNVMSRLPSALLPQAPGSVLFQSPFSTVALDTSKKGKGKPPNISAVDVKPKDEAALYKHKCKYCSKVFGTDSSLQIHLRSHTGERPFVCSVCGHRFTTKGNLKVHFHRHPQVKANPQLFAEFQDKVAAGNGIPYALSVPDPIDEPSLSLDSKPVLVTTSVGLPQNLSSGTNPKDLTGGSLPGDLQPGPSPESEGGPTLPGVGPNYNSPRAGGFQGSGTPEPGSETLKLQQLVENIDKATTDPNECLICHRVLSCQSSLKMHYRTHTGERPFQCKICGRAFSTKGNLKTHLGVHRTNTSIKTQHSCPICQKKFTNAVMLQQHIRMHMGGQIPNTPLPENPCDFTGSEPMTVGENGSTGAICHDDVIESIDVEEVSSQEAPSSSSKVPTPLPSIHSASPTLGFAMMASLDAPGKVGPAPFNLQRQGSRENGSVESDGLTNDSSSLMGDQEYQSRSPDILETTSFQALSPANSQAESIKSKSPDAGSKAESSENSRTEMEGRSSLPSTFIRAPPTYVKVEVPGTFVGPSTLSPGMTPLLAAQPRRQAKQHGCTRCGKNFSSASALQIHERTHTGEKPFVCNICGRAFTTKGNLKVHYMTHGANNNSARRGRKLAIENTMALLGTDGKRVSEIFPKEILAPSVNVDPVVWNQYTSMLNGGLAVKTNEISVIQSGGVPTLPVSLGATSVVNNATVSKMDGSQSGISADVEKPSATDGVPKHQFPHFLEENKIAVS
Technique: universal PBM
Molecule type: double-stranded DNA, one strand shown
Sample: in vitro
Concentration: 600 nM
Notes: 8-mer, flanks averaged, mean of replicates
Direction: higher = stronger binding
| Strand | E-score |
| --- | --- |
| GACAAGCA | -0.0492 |
| CCACAGTA | 0.0424 |
| AGAAGAAA | 0.0968 |
| GCGTTAGC | -0.0359 |
| CAAGCTTG | -0.00673 |
| ACATTGAC | 0.188 |
| ACGCCGAG | -0.317 |
| CGTTCGTA | 0.117 |
| AGTACGGG | -0.11 |
| GATTAGGA | 0.102 |
| CCCTGTGC | -0.213 |
| TATTGCAA | 0.231 |
| AGTCCCGC | -0.236 |
| CCTTTGAC | -0.0215 |
| CCTTATGC | 0.14 |
| ACAAACGG | -0.0173 |
| GATGTACA | 0.167 |
| ACATTTAC | 0.22 |
| GGGATGCA | -0.0915 |
| CCCTCACA | -0.0988 |
| GCGAGGGA | -0.149 |
| CTGATTTC | -0.0239 |
| TCACGTCA | -0.028 |
| CATGAATG | 0.171 |
| CCACCGGC | -0.371 |

Excerpt of the above (set 3):
| Strand | E-score |
| --- | --- |
| GGCGCCAC | 0.275 |
| TCGTGAAA | 0.0309 |
| CCTAGGAG | -0.134 |
| GCGCCCCC | 0.178 |
| GGCTAAAA | 0.0973 |
| AAGTTGGG | -0.282 |
| GCCGTAAC | 0.31 |
| AATGAACT | -0.0518 |
| TATGATGA | -0.0899 |
| ACCTAATG | -0.202 |
| CTACCGCC | 0.192 |
| CGCGCGTA | 0.404 |
| AACCGAAC | -0.121 |
| CTGCCGTA | 0.182 |
